# Measured values gathered from unrelated publications.
# Each numbered part is a random draw from the data of one study; scales do not carry over between parts. “And” joins repeats or separate records; there may be more than shown.
# Sequence of UniProt Q96L34 (whole entry, looked up): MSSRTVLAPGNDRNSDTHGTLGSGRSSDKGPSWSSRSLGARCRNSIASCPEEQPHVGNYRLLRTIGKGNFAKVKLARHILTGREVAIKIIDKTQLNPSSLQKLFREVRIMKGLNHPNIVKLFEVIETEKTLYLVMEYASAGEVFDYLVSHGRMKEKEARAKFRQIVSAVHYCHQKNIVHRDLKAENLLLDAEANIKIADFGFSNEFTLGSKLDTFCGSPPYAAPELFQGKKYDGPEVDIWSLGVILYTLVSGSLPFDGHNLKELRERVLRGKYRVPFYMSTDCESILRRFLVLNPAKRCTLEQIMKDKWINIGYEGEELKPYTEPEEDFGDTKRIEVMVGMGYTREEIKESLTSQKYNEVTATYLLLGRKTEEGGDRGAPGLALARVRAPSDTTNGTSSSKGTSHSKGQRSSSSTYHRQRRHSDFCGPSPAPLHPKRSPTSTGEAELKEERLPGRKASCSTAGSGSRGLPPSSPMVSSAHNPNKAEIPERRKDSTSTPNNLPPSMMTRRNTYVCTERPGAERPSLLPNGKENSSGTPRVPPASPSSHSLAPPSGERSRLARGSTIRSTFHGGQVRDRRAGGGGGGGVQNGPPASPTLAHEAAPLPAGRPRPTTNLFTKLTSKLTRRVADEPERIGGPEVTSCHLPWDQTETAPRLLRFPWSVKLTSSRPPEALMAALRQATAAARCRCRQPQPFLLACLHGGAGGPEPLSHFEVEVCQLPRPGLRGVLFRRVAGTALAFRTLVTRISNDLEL
# Sequence of UniProt Q6DT37 (whole entry, looked up): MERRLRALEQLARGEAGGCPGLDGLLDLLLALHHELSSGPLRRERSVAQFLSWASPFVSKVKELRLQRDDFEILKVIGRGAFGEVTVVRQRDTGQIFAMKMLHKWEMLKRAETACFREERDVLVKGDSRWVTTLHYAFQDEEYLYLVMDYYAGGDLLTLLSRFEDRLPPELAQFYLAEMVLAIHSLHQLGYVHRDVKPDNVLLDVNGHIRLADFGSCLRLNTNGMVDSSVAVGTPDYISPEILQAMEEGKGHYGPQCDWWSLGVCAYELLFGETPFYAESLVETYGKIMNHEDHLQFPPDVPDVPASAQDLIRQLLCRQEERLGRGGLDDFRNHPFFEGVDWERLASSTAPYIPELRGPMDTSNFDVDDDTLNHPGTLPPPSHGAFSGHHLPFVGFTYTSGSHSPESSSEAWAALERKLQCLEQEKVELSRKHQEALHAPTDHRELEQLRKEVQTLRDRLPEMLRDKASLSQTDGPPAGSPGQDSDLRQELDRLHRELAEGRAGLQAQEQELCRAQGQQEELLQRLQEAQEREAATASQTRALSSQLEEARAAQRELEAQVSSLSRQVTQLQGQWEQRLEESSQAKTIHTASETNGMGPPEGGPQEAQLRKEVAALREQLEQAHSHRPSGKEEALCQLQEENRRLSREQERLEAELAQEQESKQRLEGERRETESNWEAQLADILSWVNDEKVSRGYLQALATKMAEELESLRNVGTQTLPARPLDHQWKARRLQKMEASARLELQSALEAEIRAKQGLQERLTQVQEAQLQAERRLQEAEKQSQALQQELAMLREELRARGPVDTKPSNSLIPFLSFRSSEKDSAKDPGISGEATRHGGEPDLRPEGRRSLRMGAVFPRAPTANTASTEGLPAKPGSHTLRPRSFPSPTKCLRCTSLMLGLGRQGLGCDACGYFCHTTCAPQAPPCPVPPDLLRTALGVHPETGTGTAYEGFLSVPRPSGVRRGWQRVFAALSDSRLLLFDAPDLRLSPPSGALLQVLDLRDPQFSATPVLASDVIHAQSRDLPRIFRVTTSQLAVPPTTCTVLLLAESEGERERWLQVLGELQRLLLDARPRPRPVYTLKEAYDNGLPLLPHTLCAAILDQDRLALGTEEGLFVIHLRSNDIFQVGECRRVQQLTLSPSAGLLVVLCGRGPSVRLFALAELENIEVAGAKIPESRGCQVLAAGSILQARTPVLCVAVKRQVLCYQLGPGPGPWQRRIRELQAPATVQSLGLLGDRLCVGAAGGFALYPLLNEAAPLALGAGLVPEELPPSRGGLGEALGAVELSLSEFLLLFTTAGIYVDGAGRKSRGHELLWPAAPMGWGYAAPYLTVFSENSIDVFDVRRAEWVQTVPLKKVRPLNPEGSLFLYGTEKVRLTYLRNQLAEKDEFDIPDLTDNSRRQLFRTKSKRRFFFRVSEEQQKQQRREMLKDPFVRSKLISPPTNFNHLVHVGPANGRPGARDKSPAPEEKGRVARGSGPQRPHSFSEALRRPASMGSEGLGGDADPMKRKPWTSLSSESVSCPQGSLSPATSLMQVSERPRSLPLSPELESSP
# Sequence of UniProt O43683 (whole entry, looked up): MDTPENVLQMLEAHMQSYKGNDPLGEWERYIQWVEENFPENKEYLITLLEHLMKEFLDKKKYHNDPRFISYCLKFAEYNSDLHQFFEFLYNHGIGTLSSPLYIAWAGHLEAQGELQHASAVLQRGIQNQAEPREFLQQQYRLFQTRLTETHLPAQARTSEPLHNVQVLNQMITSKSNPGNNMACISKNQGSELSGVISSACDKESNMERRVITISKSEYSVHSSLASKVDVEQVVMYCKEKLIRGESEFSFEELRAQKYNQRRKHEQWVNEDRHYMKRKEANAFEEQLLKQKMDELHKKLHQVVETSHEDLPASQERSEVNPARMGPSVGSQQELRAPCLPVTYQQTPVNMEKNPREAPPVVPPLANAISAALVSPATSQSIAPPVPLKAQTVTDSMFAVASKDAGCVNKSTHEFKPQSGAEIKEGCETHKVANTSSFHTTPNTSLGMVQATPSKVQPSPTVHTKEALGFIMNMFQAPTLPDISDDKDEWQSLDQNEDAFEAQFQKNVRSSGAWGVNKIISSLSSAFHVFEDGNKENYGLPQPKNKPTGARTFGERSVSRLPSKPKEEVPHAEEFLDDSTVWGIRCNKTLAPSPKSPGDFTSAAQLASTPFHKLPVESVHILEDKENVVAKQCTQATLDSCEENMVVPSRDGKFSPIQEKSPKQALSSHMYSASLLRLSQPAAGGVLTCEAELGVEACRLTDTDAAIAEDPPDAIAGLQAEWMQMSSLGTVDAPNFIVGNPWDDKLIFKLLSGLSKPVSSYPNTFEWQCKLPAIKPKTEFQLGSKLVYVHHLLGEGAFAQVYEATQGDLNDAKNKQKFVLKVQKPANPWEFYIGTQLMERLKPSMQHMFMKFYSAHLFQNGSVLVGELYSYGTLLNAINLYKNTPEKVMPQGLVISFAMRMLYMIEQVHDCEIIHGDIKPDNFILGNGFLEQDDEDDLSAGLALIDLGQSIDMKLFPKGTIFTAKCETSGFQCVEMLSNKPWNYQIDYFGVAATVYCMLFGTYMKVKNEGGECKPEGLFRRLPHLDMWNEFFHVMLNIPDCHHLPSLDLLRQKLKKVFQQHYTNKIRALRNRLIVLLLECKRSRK
# Sequence of UniProt P16591 (whole entry, looked up): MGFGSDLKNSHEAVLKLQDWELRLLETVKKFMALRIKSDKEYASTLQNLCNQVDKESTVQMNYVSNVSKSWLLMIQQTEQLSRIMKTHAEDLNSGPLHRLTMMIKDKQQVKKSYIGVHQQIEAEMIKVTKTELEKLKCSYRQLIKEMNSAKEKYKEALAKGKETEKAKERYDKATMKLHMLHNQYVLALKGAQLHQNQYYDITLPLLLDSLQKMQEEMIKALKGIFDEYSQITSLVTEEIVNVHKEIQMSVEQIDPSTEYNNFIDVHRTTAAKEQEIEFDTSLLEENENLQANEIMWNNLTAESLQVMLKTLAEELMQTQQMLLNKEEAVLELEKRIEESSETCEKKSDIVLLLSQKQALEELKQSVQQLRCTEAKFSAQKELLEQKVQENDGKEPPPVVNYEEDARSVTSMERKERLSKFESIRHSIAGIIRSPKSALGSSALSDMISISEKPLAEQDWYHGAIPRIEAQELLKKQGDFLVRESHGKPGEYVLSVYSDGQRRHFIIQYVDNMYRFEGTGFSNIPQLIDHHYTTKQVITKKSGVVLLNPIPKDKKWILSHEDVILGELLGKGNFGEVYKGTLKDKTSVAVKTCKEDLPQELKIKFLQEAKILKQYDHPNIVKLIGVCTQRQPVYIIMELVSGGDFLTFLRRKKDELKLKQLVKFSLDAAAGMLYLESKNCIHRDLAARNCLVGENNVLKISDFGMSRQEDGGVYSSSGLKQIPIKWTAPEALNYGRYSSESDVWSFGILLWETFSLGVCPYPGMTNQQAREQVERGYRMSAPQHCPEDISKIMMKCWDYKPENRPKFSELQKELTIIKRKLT
# Sequence of UniProt Q04759 (whole entry, looked up): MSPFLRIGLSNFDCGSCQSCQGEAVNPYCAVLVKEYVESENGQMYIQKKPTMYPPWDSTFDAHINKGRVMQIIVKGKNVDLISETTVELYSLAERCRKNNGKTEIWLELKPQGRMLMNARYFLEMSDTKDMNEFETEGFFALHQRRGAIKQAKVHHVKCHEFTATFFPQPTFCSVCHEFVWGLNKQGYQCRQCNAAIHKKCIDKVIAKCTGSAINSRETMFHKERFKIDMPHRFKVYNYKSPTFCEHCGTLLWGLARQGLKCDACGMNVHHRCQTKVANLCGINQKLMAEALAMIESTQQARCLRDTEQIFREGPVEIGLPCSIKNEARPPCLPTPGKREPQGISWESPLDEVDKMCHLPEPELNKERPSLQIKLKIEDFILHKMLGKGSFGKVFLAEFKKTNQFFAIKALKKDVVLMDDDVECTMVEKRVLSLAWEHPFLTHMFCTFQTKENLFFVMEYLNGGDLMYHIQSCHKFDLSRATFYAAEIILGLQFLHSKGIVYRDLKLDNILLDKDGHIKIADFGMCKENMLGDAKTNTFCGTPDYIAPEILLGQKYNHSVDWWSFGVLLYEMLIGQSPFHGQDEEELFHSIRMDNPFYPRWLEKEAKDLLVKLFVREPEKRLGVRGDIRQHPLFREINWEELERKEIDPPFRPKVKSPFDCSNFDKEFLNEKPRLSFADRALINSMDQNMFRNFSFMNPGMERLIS

# Series 1
# SMILES: Ic1cccc(CSc2nnc(-c3ccncc3)o2)c1
# Effect on: enzyme activity
# Mode: inhibitor
# Concentration: 0.5 µM
# Baseline: control
target,remaining activity [%]
"Cyclin-dependent kinase 2, with cyclin E (CDK2, Homo sapiens, UniProt P24941)",102
"Tyrosine-protein kinase JAK1 (JAK1, Homo sapiens, UniProt P23458)",103
"Protein kinase C theta type (PRKCQ, Homo sapiens, UniProt Q04759)",120
"Protein kinase C zeta type (PRKCZ, Homo sapiens, UniProt Q05513)",96.1
"Serine/threonine-protein kinase SIK2 (SIK2, Homo sapiens, UniProt Q9H0K1)",100
"Dual specificity protein kinase CLK2 (CLK2, Homo sapiens, UniProt P49760)",104
"Casein kinase I isoform epsilon (CSNK1E, Homo sapiens, UniProt P49674)",94.3
"Calcium/calmodulin-dependent protein kinase kinase 1 (CAMKK1, Homo sapiens, UniProt Q8N5S9)",124

# Series 2
# SMILES: COc1ccc(-c2c(Nc3ccccn3)[nH]c3c(C4=CCCCC4)c(-c4ccccc4)nn3c2=O)cc1
# Host: human
# Matrix: plasma
# Route: oral
dose,time,baseline,accumulation ratio
50 mg once daily,cycle 1,steady state over single dose,3.13
400 mg once daily,cycle 1,steady state over single dose,1.2 and 1.92 and 1.66 and 1.93
200 mg twice daily,,steady-state AUC over single-dose AUC,27.9 and 19.4 and 11.5

# Series 3
# Compound: COc1ccc2c(c1)O[C@H](c1ccc(OC)c(OC)c1)C[C@@H]2NC(=O)C1(c2ccc3c(c2)OC(F)(F)O3)CC1
# Concentration: 1 µM
target,effect on,method,remaining binding
"Mitogen-activated protein kinase kinase kinase kinase 3 (MAP4K3, Homo sapiens, UniProt Q8IVH8)",cell-free assay,competition with immobilised ligand,100%
"Activin receptor type-2A (ACVR2A, Homo sapiens, UniProt P27037)",cell-free assay,competition with immobilised ligand,97%
"Serine/threonine-protein kinase MRCK gamma (CDC42BPG, Homo sapiens, UniProt Q6DT37)",,competition binding,89%
"Tyrosine-protein kinase Fer (FER, Homo sapiens, UniProt P16591)",cell-free assay,competition with immobilised ligand,100%
"Receptor-type tyrosine-protein kinase FLT3 (FLT3, Homo sapiens, UniProt P36888, D835H)",cell-free assay,competition with immobilised ligand,100%
"Proto-oncogene tyrosine-protein kinase receptor Ret (RET, Homo sapiens, UniProt P07949)",cell-free assay,competition with immobilised ligand,100%
"MAP/microtubule affinity-regulating kinase 4 (MARK4, Homo sapiens, UniProt Q96L34)",cell-free assay,competition with immobilised ligand,88%
"Mitotic checkpoint serine/threonine-protein kinase BUB1 (BUB1, Homo sapiens, UniProt O43683)",cell-free assay,competition with immobilised ligand,100%
"Tyrosine-protein kinase receptor Tie-1 (TIE1, Homo sapiens, UniProt P35590)",cell-free assay,competition with immobilised ligand,100%
"Serine/threonine-protein kinase MRCK beta (CDC42BPB, Homo sapiens, UniProt Q9Y5S2)",cell-free assay,competition with immobilised ligand,100%
"LIM domain kinase 1 (LIMK1, Homo sapiens, UniProt P53667)",cell-free assay,competition with immobilised ligand,98%

# Further values, each from its own experiment
Compound,matrix,quantity,result
CCC[C@@H]1NC(=O)CSC[C@@H](C(=O)OCC)N(C)C(=O)[C@H](CC(C)C)NC(=O)[C@@H](C)N(C)C(=O)[C@@H](CC(C)C)NC(=O)[C@H](C)N(C)C(=O)[C@H]2CCCN2C(=O)[C@H](CC(C)C)NC(=O)CN(C)C1=O,hydrocarbon/water,logD,-0.184

# Some of these lines once more (series 3):
target,effect on,method,remaining binding
"Proto-oncogene tyrosine-protein kinase receptor Ret (RET, Homo sapiens, UniProt P07949)",cell-free assay,competition with immobilised ligand,100%
"Mitogen-activated protein kinase kinase kinase kinase 3 (MAP4K3, Homo sapiens, UniProt Q8IVH8)",cell-free assay,competition with immobilised ligand,100%
